Published values collected from several papers.
Every numbered part comes from another study and shows a few of its results, in no order. Positions count from the first letter of the parent shown.

Block 1
Target: Interferon regulatory factor 7, full length, phosphomimetic (IRF7, Homo sapiens, UniProt Q92985, residues 1-503, S101K/S471D/S472D/S475D/S476D/S477D/S483D/S484D/S487D)
Chain of UniProt Q92985 (whole entry, unmodified, looked up): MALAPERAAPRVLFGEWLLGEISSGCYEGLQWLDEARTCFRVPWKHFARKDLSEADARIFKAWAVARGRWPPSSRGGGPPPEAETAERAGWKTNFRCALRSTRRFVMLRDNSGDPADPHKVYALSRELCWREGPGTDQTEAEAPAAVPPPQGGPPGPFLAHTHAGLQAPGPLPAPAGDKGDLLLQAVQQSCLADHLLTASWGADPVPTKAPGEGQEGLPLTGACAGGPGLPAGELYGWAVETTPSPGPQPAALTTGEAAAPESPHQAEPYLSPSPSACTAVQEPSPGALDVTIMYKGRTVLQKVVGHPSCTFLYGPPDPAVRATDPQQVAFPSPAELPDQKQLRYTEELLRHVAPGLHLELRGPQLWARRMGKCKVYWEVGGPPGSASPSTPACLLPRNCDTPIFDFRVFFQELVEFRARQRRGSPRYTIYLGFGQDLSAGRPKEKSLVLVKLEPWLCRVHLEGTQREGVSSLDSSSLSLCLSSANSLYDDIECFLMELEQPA
Method: protein-binding microarray
Molecule type: double-stranded DNA, one strand shown
Sample: in vitro
Concentration: 250 nM
Setting: 60-bp whole probe
Together with: salmon DNA 0.4 mg/ml
Baseline: random background probes
Direction: higher = stronger binding
Constant ends, left off below: GCCTAGCAC … GTCTTGATTCGCTTGACGCTGCTG
Strand | log fluorescence [z-score]
TTAGGACCGCTACTGCTTTAGTGCTAG | 0.0326
TCAATATCCATTATAGAACTGTGCTAG | 0.608
TTAGGACTGATTATCCTTTAGTGCTAG | -0.0579
ATGTCCTCCTCTCTCTTTCCGTGCTAG | 1.01
TCAACCATCCCTTATAAAACTGTGCTA | -0.0734
TTAGGAGTGGTACATGAAGCGTGCTAG | -0.813
CCACTTTCCATTTCTGTTTTTGTGCTA | 4.33
GACGGACTGGACTGTCGGGACGTGCTA | -0.848
GACGATTACAGTATCGAGACGTGCTAG | -0.0375
GGCGGTTTCCTTTCCCTGACGTGCTAG | 4.55
ACAAATGGCCAACAAACATTGTGCTAG | -0.116
TCCAATTGTCCTTTCACTTTGTGCTAG | 0.659
TTAGATATCAGCTTCGATTAGTGCTAG | 0.169
GGCGGTTTCGGGACTGGGGACGTGCTA | 3.66
TCCAGTCTGGGAGATGAAGCGGTGCTA | -0.881
GACGGTCTCTGTATCGGGACGTGCTAG | -0.129
TTAGGTATCGGACTGGTTTAGTGCTAG | 0.435
GACGGACTGGGGGTTCGGGACGTGCTA | 0.162
TTAGGTTTCGGGACTGCGTTAGTGCTA | 4.1

Block 2
Target: Histone acetyltransferase KAT6A, both winged helices, GST fusion (KAT6A, Homo sapiens, UniProt Q92794, residues 1-181)
Method: protein binding microarray
Molecule type: double-stranded DNA, one strand shown
Sample: in vitro
Concentration: not given
Setting: 8-mer, flanks averaged, mean of 2 arrays, mostly near background
Baseline: not given
Direction: higher = stronger binding
Target sequence (chain): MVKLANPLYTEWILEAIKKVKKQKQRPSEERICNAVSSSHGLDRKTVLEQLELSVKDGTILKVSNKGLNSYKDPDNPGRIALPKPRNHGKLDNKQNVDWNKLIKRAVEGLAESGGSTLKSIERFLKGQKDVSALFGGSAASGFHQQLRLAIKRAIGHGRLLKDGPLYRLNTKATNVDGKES
Strand | E-score
ACGACAGT | -0.133
AATACGGC | 0.212
AAGCGTCT | 0.122
CTACTTGA | -0.113
AAGAGCCC | -0.0865
TTAAGGAA | -0.164
AGATTTGG | -0.214
AAAGCTAA | -0.0983
AACCCAAT | -0.152
CGTAGTAC | 0.073
TAGTTAGA | -0.0293
AATCATAA | -0.146
AAGTCAAC | -0.141
GGACCTAC | -0.0465
TCCAAGGA | -0.0599
CTGTTCGC | 0.166
CCTTGGGC | 0.00122
CAAATAAG | -0.0577
AAAGAGGC | -0.13
ATATATAA | -0.0857
CTCACGCA | 0.0201

Block 3
Target: CCND1, cyclin fold, Cln2 fusion (human)
Method: yeast growth competition, sequencing
Sample: yeast
Setting: strong parent motif
Baseline: not given
Direction: higher = stronger binding
Parent: E2F1 docking peptide (human); PPVKRRLDFETDH; partner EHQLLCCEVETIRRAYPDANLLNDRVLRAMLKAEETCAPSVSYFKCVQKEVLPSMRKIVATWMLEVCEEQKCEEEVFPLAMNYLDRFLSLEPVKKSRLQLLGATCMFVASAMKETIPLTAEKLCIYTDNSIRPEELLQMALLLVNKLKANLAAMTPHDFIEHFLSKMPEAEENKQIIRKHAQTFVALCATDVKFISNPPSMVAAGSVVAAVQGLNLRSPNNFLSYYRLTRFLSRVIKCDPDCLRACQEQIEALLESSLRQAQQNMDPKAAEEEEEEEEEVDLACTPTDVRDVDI
Variant | normalised enrichment score
PPVKRRLDSETDH [F9S] | 0.224
PPVKRRSDFETDH [L7S] | -0.107
PWVKRRLDFETDH [P2W] | 0.762
PPVKRRLDFFTDH [E10F] | 1.11
PPVQRRLDFETDH [K4Q] | 3.29
PPVKRNLDFETDH [R6N] | 0.528
PPVKIRLDFETDH [R5I] | 1.24
PPVKRRLCFETDH [D8C] | 3.08
PPVKRRIDFETDH [L7I] | 3.15
PPVKRRLDFTTDH [E10T] | 2.47
PPVKRRLDFEDDH [T11D] | 3.47
PPVKRRWDFETDH [L7W] | -0.149
PGVKRRLDFETDH [P2G] | 2.64
PPVKRRLDFYTDH [E10Y] | 1.14
PPSKRRLDFETDH [V3S] | 1.42
PPVPRRLDFETDH [K4P] | 1.17
PPVKRRLSFETDH [D8S] | 2.71
PHVKRRLDFETDH [P2H] | 1.62
PPVKRRLDFEYDH [T11Y] | 2.95
PPVKRRLEFETDH [D8E] | 2.25
PPVKRRLDFKTDH [E10K] | 1.53
PPVKRRLDFETTH [D12T] | 2.66
PPVKRRLDFGTDH [E10G] | 3.26
PPVKRRLDHETDH [F9H] | -0.129
PPVKRRLYFETDH [D8Y] | 1.92

Block 4
Target: UBE2U UBC core domain (UniProt Q5VVX9)
Method: yeast two-hybrid
Sample: yeast
Setting: mostly zero background
Baseline: not given
Direction: higher = stronger interaction
B1: Ltn1 RING domain (UniProt Q6A009); chain VDKRFEGVEDCMICFSVIHGFNYSLPKKACRTCKKKFHSACLYKWFTSSNKSTCPLCRETFF
B2: PRKN RING domain (UniProt O60260); chain LIATNSRNITCITCTDVRSPVLVFQCNSRHVICLDCFHLYCVTRLNDRQFVHDPQLGYSLPCVAGCPNSLIKELHH
B3: TRIM48 RING domain (UniProt Q8IWZ4); chain ISQVFQRELTCPICMNYFIDPVTIDCGHSFCRPCFYLNWQDIPILTQCFECIKTIQQRNLKT
B4: RNF24 RING domain (UniProt Q9Y225); chain KVKELNLHELCAVCLEDFKPRDELGICPCKHAFHRKCLIKWLEVRKVCPLCNMPVLQLAQLH
Target sequence (chain): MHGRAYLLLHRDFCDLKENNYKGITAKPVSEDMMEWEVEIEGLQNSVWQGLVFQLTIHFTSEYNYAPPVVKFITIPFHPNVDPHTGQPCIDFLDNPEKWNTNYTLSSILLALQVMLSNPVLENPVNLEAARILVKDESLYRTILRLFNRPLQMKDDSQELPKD
Molecule | lacZ reporter activity
MDDQGCPRCKTTKYRNPSLKLMVNVCGHTLCESCVDLLFVRGAGNCPECGTPLRKSNFRV (MNAT1 RING domain (UniProt P51948)) | 0
B1 (Ltn1 RING domain) | 0
B2 (PRKN RING domain) | 5130
B3 (TRIM48 RING domain) | 0
KEQLEKHNDICAICYQDMKSAVITPCSHFFHAGCLKKWLYVQETCPLCHCHLKNSSQLP (RNF145 RING domain (UniProt Q96MT1)) | 10000
QLRRLQEERTCKVCLDRAVSIVFVPCGHLVCAECAPGLQLCPICRAPVRSRVRTF (BIRC7 RING domain (UniProt Q96CA5)) | 0
B4 (RNF24 RING domain) | 0
KITELNPHLMCVLCGGYFIDATTIIECLHSFCKTCIVRYLETSKYCPICDVQVHKTRPLL (BMI1 RING domain (UniProt P35226)) | 15800

Some of these lines once more (block 1):
Strand | log fluorescence [z-score]
TTAGGAGTGGTACATGAAGCGTGCTAG | -0.813
CCACTTTCCATTTCTGTTTTTGTGCTA | 4.33
GACGGACTGGACTGTCGGGACGTGCTA | -0.848
GACGATTACAGTATCGAGACGTGCTAG | -0.0375
GGCGGTTTCCTTTCCCTGACGTGCTAG | 4.55
ACAAATGGCCAACAAACATTGTGCTAG | -0.116
TCCAATTGTCCTTTCACTTTGTGCTAG | 0.659
TTAGATATCAGCTTCGATTAGTGCTAG | 0.169
GGCGGTTTCGGGACTGGGGACGTGCTA | 3.66
TCCAGTCTGGGAGATGAAGCGGTGCTA | -0.881
GACGGTCTCTGTATCGGGACGTGCTAG | -0.129
